Measurements of several laboratories.
Every numbered part comes from another study and shows a few of its results, in no order. Positions count from the first letter of the parent shown.

Set 1
Target: Tyrosine-protein kinase receptor TYRO3 (TYRO3, Homo sapiens, UniProt Q06418)
Read-out: enzyme activity
Mode: inhibitor
Tested at: 0.5 µM
Baseline: control
Construct (Q06418 1-890): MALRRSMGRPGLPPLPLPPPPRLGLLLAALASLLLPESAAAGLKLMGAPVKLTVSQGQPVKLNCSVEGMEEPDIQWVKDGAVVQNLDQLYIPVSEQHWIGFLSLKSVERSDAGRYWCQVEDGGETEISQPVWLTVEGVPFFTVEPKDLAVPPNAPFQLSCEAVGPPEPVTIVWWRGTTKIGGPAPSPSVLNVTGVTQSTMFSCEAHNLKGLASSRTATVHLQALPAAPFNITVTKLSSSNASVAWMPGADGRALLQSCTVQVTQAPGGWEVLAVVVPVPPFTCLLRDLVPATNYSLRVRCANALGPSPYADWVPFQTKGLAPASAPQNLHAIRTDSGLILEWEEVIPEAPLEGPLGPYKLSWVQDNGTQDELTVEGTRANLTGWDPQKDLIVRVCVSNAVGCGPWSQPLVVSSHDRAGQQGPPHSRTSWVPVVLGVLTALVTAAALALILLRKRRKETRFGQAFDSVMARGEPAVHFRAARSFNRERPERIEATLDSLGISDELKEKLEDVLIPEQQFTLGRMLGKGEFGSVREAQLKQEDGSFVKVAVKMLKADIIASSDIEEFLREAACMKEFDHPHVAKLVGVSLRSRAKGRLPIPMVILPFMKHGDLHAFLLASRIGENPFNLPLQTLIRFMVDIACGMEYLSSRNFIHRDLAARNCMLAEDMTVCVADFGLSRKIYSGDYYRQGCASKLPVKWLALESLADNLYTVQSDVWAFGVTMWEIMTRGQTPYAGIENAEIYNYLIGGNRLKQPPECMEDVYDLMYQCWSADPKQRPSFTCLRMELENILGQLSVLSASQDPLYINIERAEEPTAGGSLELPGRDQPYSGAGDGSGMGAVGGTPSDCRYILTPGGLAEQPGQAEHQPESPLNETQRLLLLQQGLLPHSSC
| Compound | remaining activity [%] |
| --- | --- |
| Cc1ccc(NC(=O)c2ccc(CN3CCN(C)CC3)cc2)cc1Nc1nc(-c2cccnc2)cs1 | 98.9 |
| COc1cc2nccc(Oc3ccc(NC(=S)NC(=O)c4ccccc4C)cc3)c2cc1OC | 92.2 |
| COc1cc2ncnc(Nc3ccc(Oc4ccccc4)cc3)c2cc1OC | 83.4 |
| Nc1ccc2ncnc(NCCc3ccc(Oc4ccccc4)cc3)c2c1 | 101 |
| O=C1NC(=O)C(c2cn(CCCO)c3ncccc23)=C1c1cnccn1 | 93.7 |
| COc1cc2ncnc(Nc3ccc(F)c(Cl)c3)c2cc1OCCCN1CCOCC1 | 94.9 |
| COc1ccc(OC)c2c(=S)c3ccccc3[nH]c12 | 97.1 |
| Cc1nc(-c2ccccc2)c(-c2ccncc2)o1 | 109 |
| Cn1c2ccccc2c2c3c(c4c5ccccc5n(CCC#N)c4c21)CNC3=O | 85.6 |
| O=S(=O)(c1cccc2cnccc12)N1CCCNCC1 | 87.9 |
| Cc1ccc(Nc2nccc(N(C)c3ccc4c(C)n(C)nc4c3)n2)cc1S(N)(=O)=O | 92 |
| N#CC(C#N)=C(N)/C(C#N)=C/c1ccc(O)cc1 | 99.3 |
| CO[C@H]1C[C@@H]2CC[C@@H](C)[C@@](O)(O2)C(=O)C(=O)N2CCCC[C@H]2C(=O)O[C@H]([C@H](C)C[C@@H]2CC[C@@H](O)[C@H](OC)C2)CC(=O)[C@H](C)/C=C(\C)[C@@H](O)[C@@H](OC)C(=O)[C@H](C)C[C@H](C)/C=C/C=C/C=C/1C | 98.5 |

Set 2
Target: Histamine H2 receptor (HRH2, Homo sapiens, UniProt P25021)
UniProt P25021, sequence (whole entry, looked up): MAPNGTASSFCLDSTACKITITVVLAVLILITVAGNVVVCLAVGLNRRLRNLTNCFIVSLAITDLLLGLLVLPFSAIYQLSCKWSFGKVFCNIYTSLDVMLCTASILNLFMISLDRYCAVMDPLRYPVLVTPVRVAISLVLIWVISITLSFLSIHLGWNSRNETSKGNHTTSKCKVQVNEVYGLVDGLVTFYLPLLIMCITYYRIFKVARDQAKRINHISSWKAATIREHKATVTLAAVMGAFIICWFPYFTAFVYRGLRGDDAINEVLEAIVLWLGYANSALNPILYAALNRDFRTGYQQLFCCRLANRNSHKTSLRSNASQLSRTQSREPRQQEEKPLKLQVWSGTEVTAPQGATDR
Read-out: binding
Method: radioligand binding
Tested at: 10 µM
| Structure (SMILES) | inhibition [%] |
| --- | --- |
| Cc1nccc(COC(=O)N2C[C@@H]3[C@@H](CNC(=O)c4ccc5[nH]nnc5c4)[C@@H]3C2)n1 | -0.15 |
| O=C(Nc1cnc(Oc2ccc(F)cc2)nc1)N1CCc2ncccc2[C@@H]1c1ccc(F)cc1 | 2.75 |
| O[C@]1(C(F)(F)F)CCCC[C@H]1Nc1ccc(F)cc1 | -1.07 |
| C[C@H](NC(=O)c1cnc2n1[C@](C)(Cc1ccc(C#N)cc1)C(=O)N2c1cc(Cl)c(F)c(Cl)c1)C(=O)NC1(c2ccccn2)CC1 | 11.8 |
| O=C(O)c1cc(-c2ccc(C3CCNCC3)cc2)c2ccc(-c3ccc(C(F)(F)F)cc3)cc2c1 | 28 |
| O=C([C@H]1C[C@H](O)CN1c1ccc(Cl)cc1)N1CC2COCC(C1)N2Cc1ccc(Cl)cc1 | 8.13 |
| COc1cccc(CNC(=O)c2nc3scc(COCc4ccc(C(=O)O)cc4)c3c(=O)[nH]2)c1 | 28.4 |

Set 3
Target: RING finger protein unkempt homolog, zinc fingers 1-6, GST-SBP tag (UNK, Homo sapiens, UniProt Q9C0B0, residues 30-357)
UniProt Q9C0B0, sequence (30-357, looked up): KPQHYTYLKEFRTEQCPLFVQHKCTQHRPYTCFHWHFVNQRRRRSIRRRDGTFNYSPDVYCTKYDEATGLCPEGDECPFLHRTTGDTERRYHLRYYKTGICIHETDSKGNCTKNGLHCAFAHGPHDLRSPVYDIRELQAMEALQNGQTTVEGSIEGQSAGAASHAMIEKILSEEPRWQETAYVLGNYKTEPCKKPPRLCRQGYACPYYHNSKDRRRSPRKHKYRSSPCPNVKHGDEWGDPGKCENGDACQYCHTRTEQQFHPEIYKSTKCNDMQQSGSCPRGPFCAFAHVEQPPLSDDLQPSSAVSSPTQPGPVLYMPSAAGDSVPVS
Method: RNA Bind-n-Seq
Form: RNA
Matrix: in vitro
Tested at: not given
Setting: RNA with constant flanks, human-mouse chimeric sites, ends assumed
Baseline: input RNA pool
Reading: higher = stronger binding
Constant ends, left off below: GGGAGUUCUACAGUCCGACGAUC … CAACAGAGGAUUGAGCAUCA
| Sequence | bound/input enrichment [ratio] |
| --- | --- |
| UAUAUCACCAAUGUCCUACAAAAUCCUGAUUUGGCUCUGAGAAUGGCUGUGCGGAACAACUUAGCUGGUGCUGAAGAACUCUUUGCCCGGAAAUUUAAUGCUCUUUUCGCCCAGGGAAAC | 0.426 |
| GCUCCUCCCCGCUCUGCAGCCUGGGGACACUGGGCUGGGACCAGAAUCUUAUUUUUUUUUAAAACUCUCAGUGUAACUGUAUCCCGUUUUUUUCUUUUUUUUUUAAAUAGUGUAUUUUUU | 41.3 |
| UAAAUUAGGGCUGCCGUCCGUUCUCACUCCCUGGGCUGCGGAAAGCCAGAAGAUUUUAUCUAGCUUAUACAAGGCUGCUGGUGUUCCCUCUUUUUUUCCCUCUCUCUGUUUUUGGCUGCA | 0.823 |
| GGAAGUACAAUGAUGGAGAUUGAUGGUGACAAAGGCAAGCAGGGCGGGCCCACCUACUACAUAGACACUAAUGCUCUCCGCGUGCCCAGGGAGAAUAUGGAGGCCAUCUCACCACUCAAG | 1.13 |
| GCACUUGGCAAUGUAAUCAGCGCCUUGGGGGACAAGAGCAAGAGAGCCACCCAUGUCCCUUACAGAGACUCUAAGCUGACAAGACUCUUGCAGGAUUCCCUUGGGGGUAACAGCCAAACC | 0.119 |
| UAAAUUAGGGCUGCCGUUUUCUGUUUCGCCCUGAGCUGCGGAAAGCCAGAAGAUUUUAUCUAGCUUAUACAAGGCUGCUGGUGUUCCCUCUUUUUUUCCACGAGGGUGUUUUUGGCUGCA | 0.473 |
| GUGACUGGUGUUAAGAUUUCCCCUCAGAAAAGAACUGCAGUAGUCACCAUAAUUCCAUCUGUGGUGAGUGCCAGUCAGAUUGUGGAGCUGGUCCCAGACCUCAGUUUAGACAUGGGAACU | 0.271 |
| GCCACCAGAUCCCAGAAACAUGACCCUUGCUGCCUACAAGGAGAAGAUGAAGGAACUCCCGCUGGUGUCCUUGUUCUGCUCCUGCUUCCUGGCCGAUCCCCUGAAUAAGUCGUCCUACAA | 0.218 |

Set 4
Target: ABI1, truncated, D143A, DHFR fusion (Arabidopsis thaliana, UniProt P49597)
Method: DHFR PCA, dose-response
Matrix: yeast
Setting: Hill fit, mean, not affinity
With: (+)-ABA, dose series
Reading: lower = more sensitive
Starting sequence: PYL1, truncated, DHFR fusion (Arabidopsis thaliana, UniProt Q8VZS8); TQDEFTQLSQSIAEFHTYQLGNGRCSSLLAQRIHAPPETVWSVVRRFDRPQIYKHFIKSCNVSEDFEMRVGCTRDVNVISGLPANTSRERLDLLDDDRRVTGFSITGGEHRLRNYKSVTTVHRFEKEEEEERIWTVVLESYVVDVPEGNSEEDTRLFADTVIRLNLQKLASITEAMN
| Variant | ABA EC50 [µM] |
| --- | --- |
| L169M | 77.1 |
| A13W | 10.1 |
| D144C | 35.4 |
| R90V | 4.25 |
| E4I | 2.86 |
| R32V | 2.52 |
| I52S | 3.36 |
| R132C | 1.24 |

Excerpt of the above (set 2):
| Structure (SMILES) | inhibition [%] |
| --- | --- |
| Cc1nccc(COC(=O)N2C[C@@H]3[C@@H](CNC(=O)c4ccc5[nH]nnc5c4)[C@@H]3C2)n1 | -0.15 |
| C[C@H](NC(=O)c1cnc2n1[C@](C)(Cc1ccc(C#N)cc1)C(=O)N2c1cc(Cl)c(F)c(Cl)c1)C(=O)NC1(c2ccccn2)CC1 | 11.8 |
| O=C(Nc1cnc(Oc2ccc(F)cc2)nc1)N1CCc2ncccc2[C@@H]1c1ccc(F)cc1 | 2.75 |
| O=C(O)c1cc(-c2ccc(C3CCNCC3)cc2)c2ccc(-c3ccc(C(F)(F)F)cc3)cc2c1 | 28 |
| COc1cccc(CNC(=O)c2nc3scc(COCc4ccc(C(=O)O)cc4)c3c(=O)[nH]2)c1 | 28.4 |
